Experimental data pooled from the literature.
A part holds a random share of what one study measured.

Study 1
Target: Sal-like protein 4, full length isoform A (SALL4, Homo sapiens, UniProt Q9UJQ4, residues 1-1053)
Sequence of UniProt Q9UJQ4 (whole entry, looked up): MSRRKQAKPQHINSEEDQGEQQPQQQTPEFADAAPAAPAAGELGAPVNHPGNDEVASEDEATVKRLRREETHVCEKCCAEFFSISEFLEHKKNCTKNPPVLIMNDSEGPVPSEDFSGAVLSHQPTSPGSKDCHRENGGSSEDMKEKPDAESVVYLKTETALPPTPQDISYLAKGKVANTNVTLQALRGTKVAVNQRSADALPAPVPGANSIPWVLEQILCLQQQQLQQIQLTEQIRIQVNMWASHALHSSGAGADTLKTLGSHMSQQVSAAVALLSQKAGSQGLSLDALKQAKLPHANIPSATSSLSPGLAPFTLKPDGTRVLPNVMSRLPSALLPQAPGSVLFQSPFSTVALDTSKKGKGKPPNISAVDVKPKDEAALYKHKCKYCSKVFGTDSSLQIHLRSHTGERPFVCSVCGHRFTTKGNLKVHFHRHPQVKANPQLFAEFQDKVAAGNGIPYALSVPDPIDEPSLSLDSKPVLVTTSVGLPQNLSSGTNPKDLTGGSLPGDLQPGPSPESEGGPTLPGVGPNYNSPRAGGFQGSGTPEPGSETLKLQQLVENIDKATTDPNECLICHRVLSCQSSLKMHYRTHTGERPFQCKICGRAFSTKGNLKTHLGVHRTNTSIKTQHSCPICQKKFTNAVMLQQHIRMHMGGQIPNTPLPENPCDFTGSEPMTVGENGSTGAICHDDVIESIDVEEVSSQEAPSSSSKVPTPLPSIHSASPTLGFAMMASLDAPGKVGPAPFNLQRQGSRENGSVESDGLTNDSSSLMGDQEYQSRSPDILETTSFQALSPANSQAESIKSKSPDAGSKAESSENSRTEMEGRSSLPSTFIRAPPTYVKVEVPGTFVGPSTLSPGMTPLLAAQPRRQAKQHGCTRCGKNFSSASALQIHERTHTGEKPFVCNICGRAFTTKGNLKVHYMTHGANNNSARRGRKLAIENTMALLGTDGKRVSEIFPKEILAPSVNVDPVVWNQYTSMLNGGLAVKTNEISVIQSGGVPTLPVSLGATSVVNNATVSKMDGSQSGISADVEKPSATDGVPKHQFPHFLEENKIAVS
Technique: universal PBM
Form: double-stranded DNA, one strand shown
Sample: in vitro
Concentration: 600 nM
Notes: 8-mer, flanks averaged, mean of replicates
Direction: higher = stronger binding
| Sequence | E-score |
| --- | --- |
| ATGGGCCC | -0.34 |
| GAGTCCTA | -0.0799 |
| CTTAAGAA | 0.288 |
| CTGTCCTA | -0.0102 |
| CCGAATGC | -0.248 |
| CCGCTGAA | -0.0976 |
| AGTTGTTC | 0.0842 |
| CCTCAAAC | -0.141 |
| CTATGGTC | 0.00251 |
| AATAGTCA | 0.137 |
| GTTTTATA | 0.3 |
| GGCGGAAC | -0.294 |
| GAATTAAA | 0.224 |
| ACGCATCC | -0.149 |
| AACCCCTG | -0.244 |
| CTGTGTGA | -0.0195 |
| AAGTTAGA | 0.204 |
| AATCTGAT | 0.132 |
| AAACAGAA | 0.254 |

Study 2
Target: Interferon regulatory factor 7, full length, phosphomimetic (IRF7, Homo sapiens, UniProt Q92985, residues 1-503, S471D/S472D/S475D/S476D/S477D/S483D/S484D/S487D)
Technique: protein-binding microarray
Form: double-stranded DNA, one strand shown
Sample: in vitro
Concentration: 2200 nM top
Notes: 60-bp whole probe
Together with: salmon DNA 0.4 mg/ml
Baseline: random background probes
Direction: higher = stronger binding
All sequences stand within: GCCTAGCAC … GTCTTGATTCGCTTGACGCTGCTG
Target sequence (chain): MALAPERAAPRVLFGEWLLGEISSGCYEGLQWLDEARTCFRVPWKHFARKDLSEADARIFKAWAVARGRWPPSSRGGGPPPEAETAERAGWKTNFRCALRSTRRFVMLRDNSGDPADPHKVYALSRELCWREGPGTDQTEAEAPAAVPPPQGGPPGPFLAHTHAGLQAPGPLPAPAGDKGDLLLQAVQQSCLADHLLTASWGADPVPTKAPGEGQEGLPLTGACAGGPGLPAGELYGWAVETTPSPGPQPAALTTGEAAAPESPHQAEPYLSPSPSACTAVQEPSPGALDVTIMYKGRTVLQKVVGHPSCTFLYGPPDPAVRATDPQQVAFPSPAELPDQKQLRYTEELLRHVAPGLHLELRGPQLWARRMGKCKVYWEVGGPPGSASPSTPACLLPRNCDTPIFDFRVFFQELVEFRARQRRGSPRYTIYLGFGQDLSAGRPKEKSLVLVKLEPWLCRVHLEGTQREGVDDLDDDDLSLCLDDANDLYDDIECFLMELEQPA
| Sequence | fitted relative affinity [z-score] |
| --- | --- |
| AGATTTATCAAATGTGGGATTGTGCTA | -0.405 |
| GAAGATTTCAGTTCCGAGACGTGCTAG | 1.42 |
| GGCAAAAACATGAACAGACAGTGCTAG | -1.24 |
| TTAGGTTTCGGCATCGGTTAGTGCTAG | 3.13 |
| TCACTTCTCCATTTTTCACTGTGCTAG | 3.2 |
| TTAGGTATCGACTATCGATTAGTGCTA | 0.202 |
| CATTTTCTCTGTTCTAGAAGGTGCTAG | 2.7 |
| GACTGTTTCGGGTATCGGGACGTGCTA | 4.64 |
| AACCTTATTAAGATTGTGCAAGTGCTA | -0.337 |
| TTAGGTTTCCTTTCCCGTTAGTGCTAG | 4.14 |
| TTAGGTCTCGTTTTCCTTTAGTGCTAG | 3.56 |
| TCATGTTTCCATCTCTCACTGTGCTAG | 3.56 |
| TTAGGACTGGACACTGGATTAGTGCTA | -0.727 |
| GAGTTTCCATTTTCTGAATGCGTGCTA | 6.3 |
| GACGGGATCGACTATCGGGACGTGCTA | -0.198 |
| CTGCCTTTCAATCCTAGGCCGTGCTAG | 0.761 |
| TTCTAAACCATTTTGGTTTTGTGCTAG | 0.69 |
| GACTGTATCCTTTTCCTGACGTGCTAG | 1.76 |
| GACGGACTCGGACTGGGGACGTGCTAG | -0.454 |
| GATGGTATCCTTCTCCTGACGTGCTAG | 1.27 |
| GACGATATGAGTATCGAGACGTGCTAG | 0.329 |
| GACGATTTCAGTTCGGAGACGTGCTAG | 1.36 |
| GACTGACTGCTTATCCTGACGTGCTAG | 0.713 |
| TCATTTTTTTCTATATGACTGTGCTAG | 2.02 |
| GACGATTTCGGGACAGGAGACGTGCTA | 1.54 |

Study 3
Target: RING finger protein unkempt homolog, zinc fingers 1-6, GST-SBP tag (UNK, Homo sapiens, UniProt Q9C0B0, residues 30-357)
Technique: RNA Bind-n-Seq
Form: RNA
Sample: in vitro
Concentration: not given
Notes: RNA with constant flanks, ends assumed
Baseline: input RNA pool
Direction: higher = stronger binding
Construct (chain): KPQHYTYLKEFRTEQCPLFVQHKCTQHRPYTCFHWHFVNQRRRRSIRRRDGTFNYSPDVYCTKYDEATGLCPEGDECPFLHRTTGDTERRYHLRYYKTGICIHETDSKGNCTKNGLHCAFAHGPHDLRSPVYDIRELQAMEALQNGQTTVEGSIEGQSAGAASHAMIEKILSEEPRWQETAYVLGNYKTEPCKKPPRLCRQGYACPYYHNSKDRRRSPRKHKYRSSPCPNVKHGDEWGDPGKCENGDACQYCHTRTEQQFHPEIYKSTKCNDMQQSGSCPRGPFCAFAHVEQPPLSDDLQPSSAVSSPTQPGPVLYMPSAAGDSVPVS
| Sequence | bound/input enrichment |
| --- | --- |
| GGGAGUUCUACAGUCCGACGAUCGACUACCAGGCUGCUGGCGAUGAUGAGAUCUCCUUUGACCCUGAUGACAUCAUCACCAACACCGAAAUGAUUGACGAUGGCUGGUGGCGUGGGGUGUGCAAGGGCAGAUACGGGCUCUUCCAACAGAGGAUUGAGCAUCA | 0.166 ratio |
| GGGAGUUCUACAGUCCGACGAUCUGCUGGCUCUGUUUUUCUGUAAAUAAAUUUGCAUAUUUUGUAGGACUUUUAAUUGUAAUGACCGAGAAAAAACAAGGAAAACUAUUUAAUGAAAGCACGAUAUUUAUCUUUGGUAAAUGACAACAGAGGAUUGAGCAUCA | 0.32 ratio |
| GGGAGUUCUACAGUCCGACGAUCGGGUUCUAUGAAUUUUUAAAUUGGUUUGAUGAAAGAGCAUGGUAUCCACUAGGAAGAACCGCCGGUGGUACUGUUUACCCAGGGUUGAUGAUAACCGCUGGCCUUAUUCAUUGGAUUUUACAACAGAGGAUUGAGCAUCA | 0.364 ratio |
| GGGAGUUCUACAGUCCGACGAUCGCAACAAGUGAAGAAGAAGCUAAAUUUGGUGCCAGACGUUUAGCCCGUAGUCUGCAGAAACCCGGUUUUCAGGUCAUCUUCACAGAUUUUAAGGUGGUGAAUGUUUUGGCAGUGUGUAACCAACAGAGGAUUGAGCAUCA | 0.267 ratio |
| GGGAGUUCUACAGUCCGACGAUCGAAAAUUUGCAUGCAGCAGCUUACCGGAAUGCCUUGGCUAAUCCCUUGUAUUGUCCUGACUACCGGAUUGGAAAAGUGACAUCAGAGGAGUUACAUUACUUCGUUCAGAACCAUUUCACACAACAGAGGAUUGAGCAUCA | 0.272 ratio |
| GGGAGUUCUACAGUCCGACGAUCGGGUUGCUUCCCAUCCCAACCUCCAGUCCUCUGACGGCAGUGAGUAGUCUUGGUGUUUCACUCCGCAGUUUGGGAGCUAUCCCAGCAGCAGCGCUGGACCCAAAUAUUACAACACUUGGACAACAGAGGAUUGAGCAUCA | 0.0626 ratio |
| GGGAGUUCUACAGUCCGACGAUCAUAGAUGAAAUUGAUGUAGAUCAGGAAGGAAUUGCAGAAAUGAUGCUGGAUGAAAAUGCUACCGCUCAAGUUCCACGCCCUGGAACGUCUUUGAAACUCCCUGGAACUAAUCAGACAGGACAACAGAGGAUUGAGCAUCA | 0.417 ratio |
| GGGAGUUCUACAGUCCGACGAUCAAGGCAACACUGGUGGCUUCCUGCCCUUCGCCGCUCCUUGCCUCCCGUUUUGCUGGGUAUUUCCGAUUGGGAGUGACCCCUGUGAUUCCAGCCAUGGGUGCCUCAGCAUCUUCUCCUGCUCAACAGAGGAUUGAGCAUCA | 0.121 ratio |
| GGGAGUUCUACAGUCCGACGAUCCUACUUUAGAGGAUUUCAGCCUUGAUGUUUUAAUAUCCUAGGCCUCUGCUGUAAUAAGAUUUCCGACAAAUGUUUGGAAUUUAAGAAGCAACUCAUGUUACUAAUUUGUAUAGCCCAUAUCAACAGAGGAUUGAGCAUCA | 1.03 ratio |
| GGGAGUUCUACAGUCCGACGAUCUUAGCAGGUGGAGCCAUCUUCUGUGUUUCUACAUGGACAUAUACAGCCACACAAAUUGGAACCGAAUGGAACAUGUCCCCUGUUGGCAGAGUCACCCCAAAGGAAUGGAGAGAUCAGUAGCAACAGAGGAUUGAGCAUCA | 0.394 ratio |
| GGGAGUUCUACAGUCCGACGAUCAUUUUGGCUCUCAUUUCACUCUUCAGUGUUCCUGUUAUUUAUGAACGGCAUCAGGCACAGACCGAUCAUUAUCUAGGACUUGCAAAUAAGAAUGUUAAAGAUGCUAUGGCUAAAAUCCAACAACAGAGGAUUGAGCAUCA | 0.198 ratio |

Study 4
Target: RNA binding protein fox-1 homolog 2, RRM domain, GST-SBP tag (RBFOX2, Homo sapiens, UniProt O43251-10, residues 100-194)
Technique: RNA Bind-n-Seq
Form: RNA
Sample: in vitro
Concentration: 365 nM
Notes: natural RNA segment, single round, ends assumed
Baseline: no-protein control
Direction: higher = stronger binding
Target sequence (chain): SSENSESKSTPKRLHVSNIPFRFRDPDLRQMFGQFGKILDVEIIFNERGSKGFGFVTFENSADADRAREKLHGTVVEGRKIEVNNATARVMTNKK
| Sequence | RBNS enrichment (R) |
| --- | --- |
| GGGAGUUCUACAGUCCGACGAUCCCGCGUGCUGUGUCACUGCUUUGUUCCAGACACAAACCAGCACGUCUAGGGCCCAGCCCCUCCCCCACCCCGGCAUUUCAGCGUCAAGUGCACUUAGCGGGGUACCCGGCUGGAAUUCUCGGGUGCCAA | 0.474 |
| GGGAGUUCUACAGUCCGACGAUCGCUGAAUUAACUUUUCCAACAACCAAGUGGGUCAGCAAUUUGAUGCCCUUGAUAAAUAUCAACUUUAUUGAAUUGUACCUUUUAUUAAAAAGGAAAUACUUCAAAACCUUUGGAAUUCUCGGGUGCCAA | 0.373 |
| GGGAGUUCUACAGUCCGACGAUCGUGUGUGAAGAUAGCUUUUUGGUAUAUUUUAAAAGUGCACAAAUUUAAGAUCUUACUGCUUUAUAAAGUGCUUUAUGAAUUAUAGGAAAAUAAACACAUUUUAGAUCUUAUGGAAUUCUCGGGUGCCAA | 1.26 |
| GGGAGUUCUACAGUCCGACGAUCAACAGACUGUGACCAAGGUCCUGUUGAGAAUUUAACAAGGCAAAAUCUGUCCUGUCACAGAAGUUUCUGAAAGCACCACAACUAAUACAGAGGAACAGAUCAGACUCCCAUGGAAUUCUCGGGUGCCAA | 0.465 |
| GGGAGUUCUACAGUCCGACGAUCUUUUUCUCCCUCUUAAUAUUGAAGAAAUUCCCACAUUUCUCAUUUGGUAAUGGUGUUGUGGCCUCAGAUUUCUUCUAGUAUUUGCUUCUGAUGAAUGAUUAUGGUCUAUAUGGAAUUCUCGGGUGCCAA | 0.301 |
| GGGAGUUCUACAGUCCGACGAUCUGUUCAUGGCCUGUAAGUGUACCCCAAGCACUGUGGGCGGGAGCUACCACUUCUUUGAGAACCUCUGCUUUACGGUUGACACUGAUGCUUAUCUUUCUCUGGAGUUACGGUGGAAUUCUCGGGUGCCAA | 0.324 |
| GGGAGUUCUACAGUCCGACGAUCUCCUCUUUGCUUGCUCUCACCUCAGGAAUUGCUUGGAUUGCUACAUGGACCCCCUGAGACUAUCAUUAUUACCUCCUAGGGCCAGGAAGCCAGGUAGGUAGUCUGAGUCAUGGAAUUCUCGGGUGCCAA | 5.74 |
| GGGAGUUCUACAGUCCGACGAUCAGCCUCUCUGAUGUUGUCAAUGAUGUAAAUUCAGUCCCUGGUUUUUAAUUUUCUGUCUGAUGUCACAGAUCAUUGUUGCACACAAACGUGGCAUAGAAAAGAACAUGUUCUGGAAUUCUCGGGUGCCAA | 0.56 |
| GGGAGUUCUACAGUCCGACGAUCGGAAUAAGUGAUCAGCAAGUGAACACACUCUAUGUCAACUCUCCUUUUAUCCAGCUGAGAUUUAUGGUAACUUAUUUAAUUAAUGGUCCUGUCUGAUGCAUCCUUGAUGGUGGAAUUCUCGGGUGCCAA | 0.505 |
| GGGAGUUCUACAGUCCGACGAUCGAGGUUCAAGGGCCUAGGUAGGUGUCUGUAGCUGGGAAUACUUGGGAACAGGGGAAGGGGAAUGUUUUCAAGACAUUUAUCCUGUUAGAAAAUCUUACAGACUAGCUUUAUGGAAUUCUCGGGUGCCAA | 0.482 |
| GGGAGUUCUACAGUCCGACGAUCACUACUAACAUGGAGAGAAUGCCGUGUAUACCUCACGUACUGUGUGCUUUAUAUUUGUAUAUACAUUUUACCUUUUAUACAGAUGUCCGAUUGUUGUCAUUUGGCUCUGCUGGAAUUCUCGGGUGCCAA | 1.03 |
| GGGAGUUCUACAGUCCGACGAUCUAACAAAGCAUUAAUAAUUCUAAGGAUAAUCUCUAUUUUGUUGUGCUUUUUUGUAACUGUUUUAAAUAAAUCAAUUUGUACUGUAUAUUUGUACUUUUGUGAGAUCCUUUUGGAAUUCUCGGGUGCCAA | 0.73 |
